# Values quoted from earlier work that unrelated publications cite.
# Each numbered part shows a few of the values that one paper quotes.
# UniProt Q63273, sequence (whole entry, looked up): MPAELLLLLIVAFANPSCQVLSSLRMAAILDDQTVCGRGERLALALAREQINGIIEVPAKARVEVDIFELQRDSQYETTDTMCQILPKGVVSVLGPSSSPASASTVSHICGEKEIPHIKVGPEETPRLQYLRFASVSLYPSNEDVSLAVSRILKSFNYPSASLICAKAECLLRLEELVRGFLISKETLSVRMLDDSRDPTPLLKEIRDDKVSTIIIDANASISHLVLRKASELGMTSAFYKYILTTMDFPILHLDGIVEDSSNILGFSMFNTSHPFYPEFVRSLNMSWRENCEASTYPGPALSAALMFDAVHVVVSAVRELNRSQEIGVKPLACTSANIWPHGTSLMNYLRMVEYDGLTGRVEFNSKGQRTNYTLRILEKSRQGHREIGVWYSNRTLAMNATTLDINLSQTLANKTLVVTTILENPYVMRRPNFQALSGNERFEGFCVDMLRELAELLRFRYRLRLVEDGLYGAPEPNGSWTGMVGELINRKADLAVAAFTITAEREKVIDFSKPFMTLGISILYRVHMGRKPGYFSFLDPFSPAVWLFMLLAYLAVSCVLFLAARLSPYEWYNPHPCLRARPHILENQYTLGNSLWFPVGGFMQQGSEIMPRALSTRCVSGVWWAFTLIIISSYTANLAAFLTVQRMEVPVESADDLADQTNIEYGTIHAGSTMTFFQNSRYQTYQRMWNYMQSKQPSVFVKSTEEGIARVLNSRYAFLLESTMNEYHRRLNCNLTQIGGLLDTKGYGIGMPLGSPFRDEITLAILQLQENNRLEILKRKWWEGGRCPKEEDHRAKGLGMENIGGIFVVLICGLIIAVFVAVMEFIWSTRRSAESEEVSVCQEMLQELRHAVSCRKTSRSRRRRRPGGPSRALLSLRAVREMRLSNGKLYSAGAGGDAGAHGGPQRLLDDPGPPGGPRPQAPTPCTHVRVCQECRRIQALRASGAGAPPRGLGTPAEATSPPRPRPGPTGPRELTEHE

# Block 1 — read-out: peptide-MHC binding; molecule type: peptide
# Target: HLA class I histocompatibility antigen, A alpha chain, allele A*80:01 (Homo sapiens, UniProt P04439)
Sequence,IC50 [µM]
FAAPHRGVA,> 20
SVFALLPPQ,> 20
YLQYSISTA,> 20
YQIEGAWRA,> 20
KMKDPKMYH,> 20
VFSDGRVAC,> 20
TFMDHVLRY,0.11
LEGLADAIW,> 20
TMGPHPAGV,> 20
FPIPTEVVA,> 20
PVTPVIPRV,> 20
GYLHDFLKY,> 20
ETIEILRNY,0.009
MGFPSLATK,> 20

# Other studies, line by line
# Ar: Androgen receptor (Ar, Rattus norvegicus, UniProt P15207)
# UniProt P15207, sequence (whole entry, looked up): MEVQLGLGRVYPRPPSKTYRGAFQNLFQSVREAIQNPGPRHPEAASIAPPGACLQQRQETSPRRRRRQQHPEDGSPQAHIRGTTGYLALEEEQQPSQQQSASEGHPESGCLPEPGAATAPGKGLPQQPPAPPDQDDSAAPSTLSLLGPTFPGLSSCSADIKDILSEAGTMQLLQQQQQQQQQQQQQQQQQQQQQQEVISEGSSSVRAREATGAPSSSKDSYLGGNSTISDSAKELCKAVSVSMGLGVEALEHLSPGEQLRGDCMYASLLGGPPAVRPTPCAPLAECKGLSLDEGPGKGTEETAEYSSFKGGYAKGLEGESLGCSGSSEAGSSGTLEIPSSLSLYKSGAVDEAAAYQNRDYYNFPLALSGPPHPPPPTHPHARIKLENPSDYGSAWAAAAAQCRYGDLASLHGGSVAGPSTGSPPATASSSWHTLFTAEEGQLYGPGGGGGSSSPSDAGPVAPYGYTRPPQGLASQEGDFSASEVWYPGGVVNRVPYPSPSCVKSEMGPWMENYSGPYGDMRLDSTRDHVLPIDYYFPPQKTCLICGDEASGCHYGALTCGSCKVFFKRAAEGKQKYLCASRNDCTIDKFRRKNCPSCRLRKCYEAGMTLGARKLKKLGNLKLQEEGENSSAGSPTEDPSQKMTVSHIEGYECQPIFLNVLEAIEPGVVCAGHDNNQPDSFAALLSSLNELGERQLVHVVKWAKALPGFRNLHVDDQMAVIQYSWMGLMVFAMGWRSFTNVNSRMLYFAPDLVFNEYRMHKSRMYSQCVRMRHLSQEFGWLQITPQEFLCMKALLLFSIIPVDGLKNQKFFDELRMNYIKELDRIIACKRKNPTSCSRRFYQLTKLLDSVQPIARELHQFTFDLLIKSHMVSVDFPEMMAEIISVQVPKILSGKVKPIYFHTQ
SMILES,tested on,assay,system,setting,measurement,result
CC[C@H](C)CCCCC(=O)N[C@@H](CCN)C(=O)N[C@H](C(=O)N[C@@H](CCN)C(=O)N[C@H]1CCNC(=O)[C@H]([C@@H](C)O)NC(=O)[C@H](CCN)NC(=O)[C@H](CCN)NC(=O)[C@H](CC(C)C)NC(=O)[C@@H](CC(C)C)NC(=O)[C@H](CCN)NC1=O)[C@@H](C)O,,,patients,below 3 mg/kg/day (ideal body weight),nephrotoxicity incidence,54.5%
CC(C)c1cccc(=O)c(O)c1,,,mouse,"dietary, long-term daily dosing",tolerated dose,100 mg/kg
C[C@]12CC[C@@H]3c4ccc(O)cc4C[C@@H](CCCCCCCCC[S+]([O-])CCCC(F)(F)C(F)(F)F)[C@H]3[C@@H]1CC[C@@H]2O (stereo partly shown),Ar,validation reference set,,concentration not given,AR binding call,inactive
CN[C@H]1[C@H]2O[C@@](C[C@H](N)C(=O)O)(C(=O)O)C[C@H]2OC[C@H]1O,"Grik5 (Rattus norvegicus, UniProt Q63273)",,,,Ki,4.3 µM
CO[C@@H](C)Cn1c(=O)n(C)c2cnc3ccc(-c4cncc(C(C)(C)O)c4)cc3c21,,,Japanese cancer patients,,maximum tolerated dose,200 mg twice daily
CCN(CC)CCOc1ccc2c(c1)C(=O)c1cc(OCCN(CC)CC)ccc1-2,,,human liver microsomes,,intrinsic clearance,10.9 µL/min/mg protein
N#C[C@@]1(c2ccc3c(N)ncnn23)O[C@H](CO)[C@@H](O)[C@H]1O,,,mouse,"intravenous, 20 mg/kg remdesivir",lung concentration,14200 nmol/kg
COc1ccc(C[C@H]2NC[C@H](O)[C@H]2OC(C)=O)cc1,Cryptosporidium,,,,IC50,0.08 µM
CCC(CC)COC(=O)[C@H](C)N[P@](=O)(OC[C@H]1O[C@@](C#N)(c2ccc3c(N)ncnn23)[C@H](O)[C@@H]1O)Oc1ccccc1,,,mouse,"20 mg/kg, 1 h",lung concentration,308 nmol/kg
O=C(O)COc1cc(Cl)c(Cl)cc1Cl,Ar,validation reference set,,concentration not given,AR binding call,inactive
O=C(O)C(F)(F)C(F)(F)C(F)(F)C(F)(F)C(F)(F)C(F)(F)C(F)(F)F,,,"human, young female",,renal clearance,0.14 mL/day/kg
C=C[C@@H]1C[C@]1(NC(=O)[C@@H]1C[C@@H]2CN1C(=O)[C@H](C(C)(C)C)NC(=O)O[C@@H]1C[C@H]1CCCCCc1nc3ccc(OC)cc3nc1O2)C(=O)NS(=O)(=O)C1CC1,human CYP3A4,inhibitor,,added: testosterone substrate,IC50,> 100 µM
O=S(=O)(O)C(F)(F)C(F)(F)C(F)(F)C(F)(F)C(F)(F)C(F)(F)F,,,"human, young female",,renal clearance,0.033 mL/day/kg
CCN(CC)CCCC(C)Nc1c2ccc(Cl)cc2nc2ccc(OC)cc12 (stereo not shown),,,guinea pig liver microsomes,,intrinsic clearance,81.3 µL/min/mg protein
